Published values from different studies.
Each numbered part is a random draw from the data of one study; scales do not carry over between parts.
Sequence of UniProt Q02779 (whole entry, looked up): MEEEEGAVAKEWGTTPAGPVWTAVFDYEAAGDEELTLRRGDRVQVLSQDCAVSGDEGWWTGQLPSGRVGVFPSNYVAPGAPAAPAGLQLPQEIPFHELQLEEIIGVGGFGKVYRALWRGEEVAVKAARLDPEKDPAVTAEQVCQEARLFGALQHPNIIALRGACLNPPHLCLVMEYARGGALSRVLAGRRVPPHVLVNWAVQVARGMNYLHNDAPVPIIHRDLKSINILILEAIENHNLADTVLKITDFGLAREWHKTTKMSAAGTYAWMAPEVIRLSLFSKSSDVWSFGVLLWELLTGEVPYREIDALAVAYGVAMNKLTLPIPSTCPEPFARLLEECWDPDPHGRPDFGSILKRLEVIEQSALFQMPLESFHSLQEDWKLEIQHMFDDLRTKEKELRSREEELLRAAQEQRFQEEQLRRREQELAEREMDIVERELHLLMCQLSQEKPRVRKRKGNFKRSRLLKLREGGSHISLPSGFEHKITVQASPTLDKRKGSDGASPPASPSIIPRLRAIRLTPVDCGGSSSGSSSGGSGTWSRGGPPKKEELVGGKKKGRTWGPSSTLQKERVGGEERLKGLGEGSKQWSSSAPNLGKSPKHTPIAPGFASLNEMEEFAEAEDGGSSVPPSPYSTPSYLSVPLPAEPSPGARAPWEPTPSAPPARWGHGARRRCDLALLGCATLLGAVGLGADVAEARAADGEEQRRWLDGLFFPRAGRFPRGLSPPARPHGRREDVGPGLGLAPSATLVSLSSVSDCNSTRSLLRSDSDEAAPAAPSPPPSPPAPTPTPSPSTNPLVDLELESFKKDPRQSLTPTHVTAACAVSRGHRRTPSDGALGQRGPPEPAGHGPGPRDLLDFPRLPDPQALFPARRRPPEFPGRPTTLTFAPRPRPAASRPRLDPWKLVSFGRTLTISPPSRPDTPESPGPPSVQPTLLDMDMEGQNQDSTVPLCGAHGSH

Sample 1
Target: RNA binding protein fox-1 homolog 2, RRM domain, GST-SBP tag (RBFOX2, Homo sapiens, UniProt O43251-10, residues 100-194)
Technique: RNA Bind-n-Seq
Form: RNA
Sample: in vitro
Concentration: 365 nM
Notes: natural RNA segment, single round, ends assumed
Reference: no-protein control
Direction: higher = stronger binding
Endpoint: RBNS enrichment (R)
Constant ends, left off below: GGGAGUUCUACAGUCCGACGAUC … UGGAAUUCUCGGGUGCCAA
Construct (chain): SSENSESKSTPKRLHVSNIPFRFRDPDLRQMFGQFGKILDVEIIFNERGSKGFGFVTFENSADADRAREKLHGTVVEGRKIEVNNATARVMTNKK
GCAGGUGGCAGCUGCAGCCCUCCUGUGCUUGUGUACGCAUGACUGCAUGGACCAGCACCACUGCCUGGCCAUAACUUCAGUGUCUCCUAACUGGGUGUGCUUUAUAGCUC: 4.12
CCAUGCCCGGCUAAUUUUUUUGUAUUUUUAGUAGAGACCAGGCUUCGCCAUGUUGGCCAGGCUGGUCUCGAACCCCUGAGCUCAGGUGAUCCACCUGCCUCGGCCUCCCA: 0.34
ACUCGAGAGGUGGGAGGAACUCCUUGCACACACCCUGAGCUUUUGCCACUUCUAUCAUUUUUGAGCAACUCCCUCUCAGCUAAAAGGCCACCCCUUUAUCGCAUUGCUGU: 0.829
AGAGGGAUGACUGCUGGGGGUAGACUGGGUGCCAGGGGCCAUGGGCCCAGGACCCAGUCUUGGCCAUUCAGUUGAGUGAGGCUGAAGGCUGGGUUUGAAAAGGCAAAAAG: 0.757
AAGGUCUCCCGUGAGUGUCUGUCGGGCACCCAGGUUGUAGGUGUUUGAGAUUCUGUAGGAGGGAGGGAAGGACAGCACCUGUGGCCACCUUCCCUCUUCCGGAUCUGUUU: 1.75
AGGGUCAGGAUCUACUGCCUCUGCAGUUCACAAGCCCUGCAGCCUGGCUGUACCCGGGAGAAGCUCUCUUCCCCUUCCGUUGGACCACAGGGCAUCCUCGGUCCUGCAGA: 0.167
AGCAUUGCGCAAUUAGGUUGUUCCUUAUUUGCUUUGUUGUACUACCUGUGUAUAUAGUUUUUAUCUUUUACUCUGUAGCACAUAAACGUUAGGGAUGGGAGGGCAGGGUG: 0.425
CACUCUUCAAGCGCUUGCUCUUACAGGCAGACAUCGUUUUCUCUCUAAAUUCAGUAGCAGUUUCAUCGACAGUGCCAUUGAACUAUGGGAACAUUUAUGAUUUUCUUUCA: 0.224

Sample 2
Target: PABPC1L2, full length, GST fusion (mouse, UniProt A0ABA7IW68)
Technique: RNAcompete
Form: RNA
Sample: in vitro
Concentration: 20 nM
Notes: 7-mer, probes averaged, single round
Reference: mean of 7-mers
Direction: higher = stronger binding
Endpoint: 7-mer Z-score
Residues (chain): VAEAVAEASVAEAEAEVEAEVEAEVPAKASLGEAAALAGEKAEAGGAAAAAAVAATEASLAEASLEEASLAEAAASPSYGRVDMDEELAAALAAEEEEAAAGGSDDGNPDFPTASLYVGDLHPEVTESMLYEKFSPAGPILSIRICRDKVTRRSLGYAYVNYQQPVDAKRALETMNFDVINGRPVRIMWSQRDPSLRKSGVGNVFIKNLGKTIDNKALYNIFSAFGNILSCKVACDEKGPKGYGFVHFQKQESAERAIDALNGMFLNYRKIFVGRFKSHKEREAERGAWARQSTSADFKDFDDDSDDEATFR
GUACCCC: -0.452
CCCAACC: -0.364
UAGGACA: 0.0841
ACCCUUG: -0.217
UAUACGA: -0.164
AAAGAAC: 2.06
AAGUCAC: 0.0315
UCCUCUA: -0.231

Sample 3
Partner: H3-3A (Homo sapiens, UniProt P84243)
Technique: cross-linking MS
Notes: hits only
Endpoint: interaction screen
H1-3 (Homo sapiens, UniProt P16402): cross-linked
H2BC12 (Homo sapiens, UniProt O60814): cross-linked
HMGA1 (Homo sapiens, UniProt P17096): cross-linked
Histone H2A type 1-B/E (Homo sapiens, UniProt P04908): cross-linked
H2BC12L (Homo sapiens, UniProt P57053): cross-linked
H2AC7 (Homo sapiens, UniProt P20671): cross-linked

Further values, each from its own experiment
CN1CCN(c2ccc3nc(-c4c(N)c5c(F)cccc5[nH]c4=O)[nH]c3c2)CC1  remaining activity (Mitogen-activated protein kinase kinase kinase 10 (MAP3K10, Homo sapiens, UniProt Q02779); enzyme activity, inhibitor; 0.5 µM; reference: control): 91.4%

Some of these lines once more (sample 2):
UAGGACA: 0.0841
UCCUCUA: -0.231
CCCAACC: -0.364
UAUACGA: -0.164
